Earlier results that unrelated publications cite.
Protocols differ between the studies behind these lines.
Chain of UniProt Q5S007 (whole entry, unmodified, looked up): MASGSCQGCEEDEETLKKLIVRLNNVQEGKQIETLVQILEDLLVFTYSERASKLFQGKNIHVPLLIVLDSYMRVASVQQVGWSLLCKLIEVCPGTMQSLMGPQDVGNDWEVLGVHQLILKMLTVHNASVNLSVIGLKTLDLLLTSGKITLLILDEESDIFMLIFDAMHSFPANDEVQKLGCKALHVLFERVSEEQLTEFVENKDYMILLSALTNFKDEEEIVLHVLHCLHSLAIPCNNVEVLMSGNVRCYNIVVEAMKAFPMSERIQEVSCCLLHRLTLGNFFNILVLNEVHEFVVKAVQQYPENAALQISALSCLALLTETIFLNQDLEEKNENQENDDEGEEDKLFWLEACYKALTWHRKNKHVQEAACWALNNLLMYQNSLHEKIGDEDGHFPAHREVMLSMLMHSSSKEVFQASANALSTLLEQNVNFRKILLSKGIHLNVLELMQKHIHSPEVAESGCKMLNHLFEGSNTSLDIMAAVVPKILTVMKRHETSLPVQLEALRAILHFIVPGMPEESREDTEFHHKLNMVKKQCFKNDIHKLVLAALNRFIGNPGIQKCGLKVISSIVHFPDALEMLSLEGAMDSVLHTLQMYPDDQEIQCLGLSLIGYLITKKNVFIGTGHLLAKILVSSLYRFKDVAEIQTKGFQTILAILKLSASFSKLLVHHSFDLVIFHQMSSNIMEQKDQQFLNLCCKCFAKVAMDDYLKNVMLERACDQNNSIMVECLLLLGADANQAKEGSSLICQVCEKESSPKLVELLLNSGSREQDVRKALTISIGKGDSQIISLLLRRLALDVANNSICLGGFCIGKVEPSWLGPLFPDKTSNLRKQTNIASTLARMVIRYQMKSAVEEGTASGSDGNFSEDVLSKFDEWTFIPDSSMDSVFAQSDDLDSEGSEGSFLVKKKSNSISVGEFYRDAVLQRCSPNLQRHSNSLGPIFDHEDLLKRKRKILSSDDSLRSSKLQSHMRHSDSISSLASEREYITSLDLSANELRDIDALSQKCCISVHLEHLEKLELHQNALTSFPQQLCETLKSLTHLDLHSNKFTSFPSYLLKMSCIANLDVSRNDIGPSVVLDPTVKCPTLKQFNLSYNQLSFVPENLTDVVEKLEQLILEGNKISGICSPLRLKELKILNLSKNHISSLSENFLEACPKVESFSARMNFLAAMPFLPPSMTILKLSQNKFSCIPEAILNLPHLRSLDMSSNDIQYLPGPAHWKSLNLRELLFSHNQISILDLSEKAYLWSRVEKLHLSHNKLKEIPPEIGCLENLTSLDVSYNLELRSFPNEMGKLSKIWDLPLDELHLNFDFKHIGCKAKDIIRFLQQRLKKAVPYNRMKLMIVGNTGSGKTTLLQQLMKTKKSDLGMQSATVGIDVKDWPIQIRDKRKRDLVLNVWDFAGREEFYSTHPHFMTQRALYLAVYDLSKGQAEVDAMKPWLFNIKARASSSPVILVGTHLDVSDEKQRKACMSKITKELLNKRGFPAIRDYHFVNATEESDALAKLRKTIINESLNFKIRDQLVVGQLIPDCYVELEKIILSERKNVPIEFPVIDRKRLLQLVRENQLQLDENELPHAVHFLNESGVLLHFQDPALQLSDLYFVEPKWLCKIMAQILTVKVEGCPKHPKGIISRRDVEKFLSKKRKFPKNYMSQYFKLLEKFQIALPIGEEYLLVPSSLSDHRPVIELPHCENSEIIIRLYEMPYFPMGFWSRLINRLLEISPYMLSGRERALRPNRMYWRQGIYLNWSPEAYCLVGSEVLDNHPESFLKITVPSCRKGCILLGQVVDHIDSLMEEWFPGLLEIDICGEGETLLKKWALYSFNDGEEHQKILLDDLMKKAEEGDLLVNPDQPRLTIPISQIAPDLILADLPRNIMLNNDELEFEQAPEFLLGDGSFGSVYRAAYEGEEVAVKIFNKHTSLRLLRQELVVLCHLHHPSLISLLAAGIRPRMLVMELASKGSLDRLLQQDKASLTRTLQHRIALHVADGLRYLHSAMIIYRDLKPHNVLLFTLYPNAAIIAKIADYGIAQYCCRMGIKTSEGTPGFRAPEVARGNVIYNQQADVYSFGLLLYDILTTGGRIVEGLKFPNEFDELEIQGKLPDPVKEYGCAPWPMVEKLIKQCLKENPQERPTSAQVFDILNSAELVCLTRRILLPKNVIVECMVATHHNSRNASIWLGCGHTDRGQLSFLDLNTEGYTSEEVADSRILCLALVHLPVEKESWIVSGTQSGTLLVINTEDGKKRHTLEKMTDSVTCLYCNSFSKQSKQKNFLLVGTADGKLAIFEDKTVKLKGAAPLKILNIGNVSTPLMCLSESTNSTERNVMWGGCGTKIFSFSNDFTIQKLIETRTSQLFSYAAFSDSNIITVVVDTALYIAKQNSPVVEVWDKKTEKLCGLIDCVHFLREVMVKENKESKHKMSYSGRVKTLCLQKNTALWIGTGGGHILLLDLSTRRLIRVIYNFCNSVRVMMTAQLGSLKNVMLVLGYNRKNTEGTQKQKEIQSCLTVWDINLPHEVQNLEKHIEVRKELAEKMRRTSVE

SMILES	target	test	test system	conditions	how to read	quantity	value
O=S(=O)(O)C(F)(F)F	CYP2C9	inhibitor		Tox21 screening		IC50	inactive
Cc1nn(C)cc1S(=O)(=O)NC(=O)c1ccc(-n2ccc(OCC(C)(C)C(F)(F)F)n2)nc1N1C[C@@H](C)CC1(C)C	CYP2C9	inhibitor				Ki	5.45 µM
C=C[C@@H]1C[C@]1(NC(=O)[C@@H]1C[C@@H]2CN1C(=O)[C@H](C(C)(C)C)NC(=O)O[C@@H]1C[C@H]1CCCCCc1nc3ccc(OC)cc3nc1O2)C(=O)NS(=O)(=O)C1CC1	CYP2C9	inhibitor	human liver microsomes			IC50	> 100 µM
FC(F)(F)C(F)(F)C(F)(F)C(F)(F)C(F)(F)C(F)(F)C(F)(F)C(F)(F)C(F)(F)C(F)(F)F	CYP2C9			concentration not given		activity	inactive
N#CCNC(=O)c1ccc(-c2ccnc(Nc3ccc(N4CCOCC4)cc3)n2)cc1	CYP2C9		human hepatocytes			contribution to metabolism	17%
CC(=O)Nc1ccc(O)cc1	CYP2C9	substrate				Vmax	0.0864 pmol/min/pmol
N#CCNC(=O)c1ccc(-c2ccnc(Nc3ccc(N4CCOCC4=O)cc3)n2)cc1	CYP2C9	enzyme activity, inhibitor		concentration not given		inhibition	no inhibition
COC(=O)N[C@H](C(=O)N1CCC[C@H]1c1nc(-c2ccc3c(c2)O[C@@H](c2ccccc2)n2c-3cc3cc(-c4c[nH]c([C@@H]5CCCN5C(=O)[C@@H](NC(=O)OC)C(C)C)n4)ccc32)c[nH]1)C(C)C	CYP2C9	inhibitor	human liver microsomes			IC50	> 100 µM
FC(F)OC(Cl)C(F)(F)F (centres unmarked)	CYP2C9	inhibitor		Tox21 screening		IC50	inactive
CC(C)(CO)c1cc2cc(NC(=O)C3(c4ccc5c(c4)OC(F)(F)O5)CC3)c(F)cc2n1C[C@@H](O)CO	CYP2C9	inhibitor				Ki	13.5 µM
COc1cc2c(Oc3ccc4[nH]c(C)cc4c3F)ccnc2cc1OCC1(N)CC1	CYP2C9	reversible inhibitor				IC50	1.56 µM
C=CC(=O)Nc1cc(Nc2nccc(-c3cn(C)c4ccccc34)n2)c(OC)cc1N(C)CCN(C)C	CYP2C9					metabolism contribution	15.5%
Nc1cc(C(F)(F)F)c(-c2nc(N3CCOCC3)nc(N3CCOCC3)n2)cn1	Leucine-rich repeat serine/threonine-protein kinase 2 (LRRK2, Homo sapiens, UniProt Q5S007, G2019S)	enzyme activity		10 µM	baseline: untreated	remaining activity	80%
Fc1c(F)c(F)c(Br)c(F)c1F	CYP2C9			concentration not given		activity	inactive

Excerpt of the above:
SMILES	target	test	test system	conditions	how to read	quantity	value
COC(=O)N[C@H](C(=O)N1CCC[C@H]1c1nc(-c2ccc3c(c2)O[C@@H](c2ccccc2)n2c-3cc3cc(-c4c[nH]c([C@@H]5CCCN5C(=O)[C@@H](NC(=O)OC)C(C)C)n4)ccc32)c[nH]1)C(C)C	CYP2C9	inhibitor	human liver microsomes			IC50	> 100 µM
FC(F)OC(Cl)C(F)(F)F (centres unmarked)	CYP2C9	inhibitor		Tox21 screening		IC50	inactive
